# Measurements of several laboratories.
# Each line is one published result; not all experiments were run side by side. Numbers after ± are the reported error.
SMILES,assay,system,conditions,scale,endpoint,result
CN(C)c1ccc(C(=O)NCCCCN2CCN(c3ccccc3O[11CH3])CC2)cc1,,"male Sprague Dawley rat, brain","intravenous, 30 min",,brain uptake,0.107 ± 0.001 %ID/g
COc1cc(C(=O)NCCOCCOCCOCCNC(=O)c2ccc([18F])nc2)ccc1NC(=O)C1NC(CC(C)(C)C)C(C#N)(c2ccc(Cl)cc2F)C1c1cccc(Cl)c1F (centres unmarked),,"athymic male mice, HepG2 xenograft",4 h,reference: tumour over liver,tumour-to-tissue ratio,1 ± 0.52
COc1ccc(N=Nc2cccc(NC(=O)CCCCCCC(=O)NO)c2)cc1,1H NMR,DMSO,irradiation 365 nm,,cis isomer content,95%
C[C@@H](O)[C@H](NC(=O)[C@H](CCCCN)NC(=O)[C@H](Cc1c[nH]c2ccccc12)NC(=O)CN)C(=O)N[C@@H](CCCNC(=N)N)C(=O)NC(C)(C)C(=O)N[C@@H](CCCNC(=N)N)C(=O)NC(C)(C)C(=O)N[C@H](C(=O)N[C@@H](CO)C(=O)N[C@@H](Cc1c[nH]cn1)C(=O)N[C@@H](Cc1ccc(O)cc1)C(=O)NCC(=O)O)[C@@H](C)O,,"C57BL/6 mouse, blood","intravenous, 50 mg/kg, 10 h",reference: leukocytes,lymphocytes,20 to 40%
CSCC[C@H](NC(=O)[C@H](Cc1c[nH]c2ccccc12)NC(=O)CNC(=O)[C@H](Cc1ccc(O)cc1)NC(=O)[C@H](C)NC(=O)[C@H](CCC(=O)O)NC(=O)[C@H](Cc1c[nH]cn1)NC(=O)[C@H](Cc1c[nH]cn1)NC(=O)[C@H](Cc1c[nH]cn1)NC(=O)[C@H](Cc1c[nH]cn1)NC(=O)[C@H](Cc1c[nH]cn1)NC(=O)[C@H](Cc1c[nH]cn1)NC(=O)CN1CCN(CC(=O)O)CCN(CC(=O)O)CCN(CC(=O)O)CC1)C(=O)N[C@@H](CC(=O)O)C(=O)N[C@@H](Cc1ccccc1)C(N)=O,,"MF1 nude mouse, male, HT29-CCK2R xenograft","intravenous, 0.2 µg, 4 h, 111In-labelled",reference: tumour over kidney,tumour-to-kidney ratio,0.08
CC(C)C[C@H](NC(=O)[C@H](CCCCN)NC(=O)[C@H](CCC(=O)O)NC(=O)[C@H](C)NC(=O)[C@@H](NC(=O)[C@H](CCCCN)NC(=O)[C@H](CC(=O)O)NC(=O)[C@H](Cc1ccc(O)cc1)NC(=O)[C@H](Cc1ccccc1)NC(=O)[C@H](C)NC(=O)[C@H](CCCCN)NC(=O)[C@H](CC(C)C)NC(=O)[C@H](Cc1c[nH]c2ccccc12)NC(=O)[C@@H](N)CC(=O)O)C(C)C)C(=O)N[C@@H](CCCCN)C(=O)N[C@@H](CCC(=O)O)C(=O)N[C@@H](C)C(=O)N[C@@H](Cc1ccccc1)C(=O)N1CCC[C@H]1C(=O)N[C@@H](CC(=O)O)C(=O)N[C@@H](Cc1c[nH]c2ccccc12)C(=O)N[C@@H](C)C(=O)N[C@@H](CCCCN)C(=O)N[C@@H](C)C(=O)N[C@@H](C)C(=O)N[C@@H](Cc1ccc(O)cc1)C(=O)N[C@@H](CC(=O)O)C(=O)N[C@@H](CCCCN)C(=O)N[C@@H](C)C(=O)N[C@@H](C)C(=O)N[C@@H](CCC(=O)O)C(=O)N[C@@H](CCCCN)C(=O)N[C@@H](C)C(=O)N[C@@H](CCCCN)C(=O)N[C@@H](CCC(=O)O)C(=O)N[C@@H](C)C(=O)N[C@@H](C)C(=O)O,,"cynomolgus monkey female, plasma","intravenous infusion, 8 mg/kg every other day, day 27",,AUC(0-last),540 µg·h/mL
CN[C@](C)(C[18F])C(=O)O,,"SCID mouse DU-145 xenograft, heart",30 min post injection,,tissue uptake,2.9 ± 0.4 %ID/g
CN(C)C(CNC(=O)Nc1cc(C(F)(F)F)ccc1N1CCOCC1)c1ccncc1 (centres unmarked),,"mouse, serum","intraperitoneal, 120 mg/kg single dose",,serum globulin,1.8 g/dL
[11CH3]n1c(=O)n(CCCO)c(=O)c2c1nc(Oc1cccc(OC(F)(F)F)c1)n2Cc1ccc(Cl)cc1,ex vivo biodistribution,"Sprague Dawley rat, fat",30 min post injection,,tracer uptake,0.72 ± 0.05 %ID/g
CC(=O)N[C@H](CCCNC(=N)N)C(=O)N[C@H](CCCCN)C(=O)N[C@H](Cc1ccc(O)cc1)C(=O)N[C@H](CS)C(N)=O,,rat liver mitochondria,"500 nM, 5 min, pH 7.4, 37 °C",reference: MitoQ,mitochondrial uptake,~80%
CC[C@H](C)C(=O)N1CCC(NC(=O)Nc2ccc(OC(F)(F)F)c(F)c2)CC1,,"human, plasma","oral, 16 mg, single dose, healthy volunteers",,Cmax,220 ng/mL
C(#Cc1cncc(OC[C@@H]2CCN2)c1)c1ccccc1,,Caco-2,"100 µM, 2 h, pH 7.4",,Papp A→B,21.1 ×10⁻⁶ cm/s
C=C1C(=O)OC2C1CCC(Cn1cc(-c3cc(C(F)(F)F)cc(C(F)(F)F)c3)nn1)=C1CCC(C)(O)C12 (centres unmarked),flow cytometry,"mouse, bone marrow",dose not given,,long-term HSC number,no effect
COCCOCCOCCOc1ccc(/C=C/c2c(I)c(C)c3n2[B-](F)(F)[N+]2=C(C)C(I)=C(C)C2=C3c2cc(OC)cc(OC)c2)cc1,,THF,,reference: methylene blue,fluorescence quantum yield,0.32
CCCCCCCC/C=C\CCCCCCCCOP(O)(O)=S.N,,"mouse, male, irradiated","subcutaneous, single dose 24 h after irradiation, together with: 15.6 Gy partial-body irradiation",,Vz/F,1.28 L/kg
CC(=CCC(O)C(C)=Cc1csc(C)n1)CC=CC(C)C(O)C(C)C(=O)C(C)(C)C(O)CC(=O)O (centres unmarked),,"human, plasma","intravenous infusion, 6.5 mg/m2 KOS-1584, 3 h infusion, cycle 1",,Tmax,3.58 ± 0.8 h
CC(CCC(=O)NCC(=O)O)C1CCC2C3CCC4CC(OC5OC(C(=O)O)C(O)C(O)C5O)CCC4(C)C3CC(O)C12C (centres unmarked),,"human, SLCO1B1 *15/*35, plasma","geometric mean, sex-adjusted",,plasma concentration,115 ng/mL
Cc1cc(Oc2nc(N3CC[C@@H](c4ccncc4)C3)ncc2F)[nH]n1,,"BALB/c mice, female","s.c., 1500 mg/kg, 28 days, long-acting injectable",,tolerability,not toxic
C=Cc1cc(O)cc2nc(-c3ccc(O)c([76Br])c3)oc12,,"female C57BL/6 mouse, kidney","1 h, low dose",,tissue uptake,1.06 ± 0.38 %ID/g
CC[C@H](C)[C@H](NC(=O)[C@H](CCCCN)NC(=O)CNC(=O)[C@H](CC(C)C)NC(=O)[C@@H](NC(=O)[C@H](C)NC(=O)[C@H](CCCCN)NC(=O)CNC(=O)[C@H](C)NC(=O)CNC(=O)[C@H](CCCCN)NC(=O)[C@H](CCSC)NC(=O)[C@H](CCCCN)NC(=O)[C@@H](NC(=O)[C@H](Cc1c[nH]c2ccccc12)NC(=O)[C@H](CC(C)C)NC(=O)[C@H](CCC(N)=O)NC(=O)[C@H](CCCCN)NC(=O)[C@H](CC(C)C)NC(=O)[C@@H](N)CC(C)C)[C@@H](C)O)C(C)C)C(=O)N[C@@H](CCCCN)C(=O)NCC(=O)N[C@@H](CC(C)C)C(=O)N[C@@H](CC(C)C)C(=O)O,acrylamide quenching,POPE:DOPG 3:1 vesicles,"2 µM, 250 µM total lipid, together with: acrylamide",,Stern-Volmer constant,1.63 ± 0.08 M⁻¹
CC(C)[C@H](NC(=O)CNC(=O)[C@H](CCC(N)=O)NC(=O)[C@H](C)N)C(=O)O,,healthy male volunteers,"intravenous, 15 mg/kg/h, 2 h, together with: LPS 2 ng/kg",,subjects with Definitely related AE,0%
CC(=O)NCC(=O)N[C@@H](CO)C(=O)N[C@@H](CCCCNP(=O)(O)O)C(=O)NCC(=O)NCC(N)=O,non-enzymatic hydrolysis,,"100 µM, pH 7.8, no enzyme",,initial velocity,3.09e-09 M/s
CC(C)C[C@H](NC(=O)CNC(=O)[C@H](C)NC(=O)[C@H](CCCNC(=N)N)NC(=O)[C@H](Cc1c[nH]cn1)NC(=O)[C@H](C)NC(=O)[C@@H](N)CC(=O)O)C(=O)N[C@@H](CCC(N)=O)C(=O)N[C@@H](Cc1ccccc1)C(=O)N1CCC[C@H]1C(=O)N[C@H](C(=O)NCC(=O)N[C@@H](CCCNC(=N)N)C(=O)N[C@H](C(=O)N[C@@H](Cc1c[nH]cn1)C(=O)N[C@@H](CCCNC(=N)N)C(=O)N[C@@H](CC(C)C)C(=O)N[C@@H](CC(C)C)C(=O)N[C@@H](CCCNC(=N)N)C(=O)N[C@@H](CCCCN)C(N)=O)C(C)C)C(C)C,haemolysis,human red blood cells,1 h,,HD10,32 µM
COc1ccc(C)cc1NC(=O)OC1CC2CCCC(C1)N2Cc1ccc(CC[18F])cc1 (centres unmarked),,"BALB/c mice, EMT6 tumour, heart",1 h,,tissue uptake,2.13 ± 0.45 %ID/g
CC(C)[C@H](NC(=O)CNC(=O)[C@H](CCC(N)=O)NC(=O)[C@H](C)N)C(=O)O,moderate intensity,human,"10 mg/kg, 3 days, thrice daily dosing",,subjects with adverse events,0%
N=C(N)NCc1ccc(C(=O)NCCCC[C@H](NC(=O)CCCCCCC(=O)NCCCC[C@H](NC(=O)N[C@@H](CCC(=O)O)C(=O)O)C(=O)O)C(=O)O)cc1[211At],,"SCID mouse, PC-3 xenografts, kidneys",2 h,,tissue uptake,87.7 ± 11 %ID/g
CC[C@H](C)[C@H](NC(=O)[C@H](C)NC(=O)CNC(=O)[C@@H](N)CCSC)C(=O)N[C@@H](C)C(=O)N[C@@H](CCCCN)C(=O)N[C@@H](CC(C)C)C(=O)N[C@@H](CCCNC(=N)N)C(=O)N[C@@H](C)C(=O)N[C@@H](CCCCN)C(=O)N[C@@H](Cc1ccccc1)C(=O)NCC(=O)N[C@@H](Cc1c[nH]c2ccccc12)C(=O)N1CCC[C@H]1C(=O)N[C@@H](Cc1ccccc1)C(=O)N[C@H](C(=O)N[C@@H](CCCCN)C(=O)N[C@@H](CCCCN)C(=O)N[C@@H](Cc1ccccc1)C(=O)N[C@@H](Cc1ccc(O)cc1)C(=O)N[C@@H](CCCCN)C(=O)N[C@@H](CCC(N)=O)C(=O)N[C@H](C(=O)N[C@@H](CCSC)C(=O)N[C@@H](CCC(N)=O)C(=O)N[C@@H](Cc1ccccc1)C(=O)N[C@H](C(=O)NCC(=O)N[C@@H](CCC(N)=O)C(=O)NCC(=O)N[C@@H](Cc1c[nH]c2ccccc12)C(=O)N[C@H](C(=O)N[C@H](C(=O)N[C@@H](CC(=O)O)C(=O)N[C@@H](CCC(N)=O)C(=O)N[C@H](C(=O)N[C@@H](CCC(=O)O)C(=O)N[C@@H](CCCCN)C(=O)N[C@@H](Cc1c[nH]c2ccccc12)C(=O)N[C@@H](CC(C)C)C(=O)N[C@@H](CCCCN)C(=O)N[C@@H](CCCNC(=N)N)C(=O)N[C@@H](Cc1c[nH]cn1)C(=O)O)[C@@H](C)CC)[C@@H](C)CC)[C@@H](C)O)[C@@H](C)CC)[C@@H](C)CC)[C@@H](C)CC,"thermal unfolding, far-UV CD",10 mM sodium phosphate,"5-20 µM, pH 7.2",,Tm,48.3 ± 0.2 °C
C[C@H](CC(=O)C[C@@H](C)[C@H]1C[C@H](O)[C@@]2(C)C3=C(C(=O)C[C@]12C)[C@@]1(C)CCC(=O)C(C)(C)[C@@H]1C[C@@H]3O)C(=O)O,,"normal mouse, pancreas",20 mg/kg,,pancreas histopathology,no effect
CCc1c2c(nc3ccc(OC4OC(C(=O)O)C(O)C(O)C4O)cc13)-c1cc3c(c(=O)n1C2)COC(=O)C3(O)CC (centres unmarked),,"human patients, plasma","intravenous, 42 mg/m^2 of parent drug",,Tmax,6 h

# Repeated from above:
SMILES,assay,system,conditions,scale,endpoint,result
CC[C@H](C)[C@H](NC(=O)[C@H](CCCCN)NC(=O)CNC(=O)[C@H](CC(C)C)NC(=O)[C@@H](NC(=O)[C@H](C)NC(=O)[C@H](CCCCN)NC(=O)CNC(=O)[C@H](C)NC(=O)CNC(=O)[C@H](CCCCN)NC(=O)[C@H](CCSC)NC(=O)[C@H](CCCCN)NC(=O)[C@@H](NC(=O)[C@H](Cc1c[nH]c2ccccc12)NC(=O)[C@H](CC(C)C)NC(=O)[C@H](CCC(N)=O)NC(=O)[C@H](CCCCN)NC(=O)[C@H](CC(C)C)NC(=O)[C@@H](N)CC(C)C)[C@@H](C)O)C(C)C)C(=O)N[C@@H](CCCCN)C(=O)NCC(=O)N[C@@H](CC(C)C)C(=O)N[C@@H](CC(C)C)C(=O)O,acrylamide quenching,POPE:DOPG 3:1 vesicles,"2 µM, 250 µM total lipid, together with: acrylamide",,Stern-Volmer constant,1.63 ± 0.08 M⁻¹
CC(C)[C@H](NC(=O)CNC(=O)[C@H](CCC(N)=O)NC(=O)[C@H](C)N)C(=O)O,,healthy male volunteers,"intravenous, 15 mg/kg/h, 2 h, together with: LPS 2 ng/kg",,subjects with Definitely related AE,0%
